{"data": "Experimental data pooled from the literature", "note": "Lines come from different studies, so protocols differ. Values joined by “and” are separate records of one study, mostly repeats; a detail may differ. ± marks the error that the study gave."}
{"SMILES": "CCCCCCCCCc1c(C)[nH]c2ccccc2c1=O", "organism": "Plasmodium yoelii", "test system": "17XL", "setting": "384-well", "endpoint": "IC50", "result": "354 ± 18 nM"}
{"SMILES": "C=C(NC(=O)c1nccc(OC)c1O)C(=O)O[C@@H](C)[C@H](OC(=O)C(C)C)[C@@H](Cc1ccccc1)C(=O)O", "organism": "Pseudokirchneriella subcapitata", "test": "growth rate", "setting": "72 h, static test", "endpoint": "EC50", "result": "> 10 µg/mL"}
{"SMILES": "CSc1ccc(OCc2ncc([N+](=O)[O-])n2C)cc1", "organism": "Trichomonas gallinae", "test": "CCK-8", "test system": "trophozoites", "setting": "24 h", "endpoint": "IC50", "result": "9480 nM"}
{"SMILES": "Cc1ccc(/C=C2/SC(=Nc3ccccc3)NC2=O)c(C)c1", "organism": "Plasmodium yoelii", "test system": "17XL", "setting": "384-well", "endpoint": "IC50", "result": "1850 ± 561 nM"}
{"SMILES": "CCOC1=CC(c2ccc[nH]2)=N/C1=C\\c1cc(Cc2ccc(Cl)cc2)c(C)[nH]1.Cl", "organism": "Plasmodium yoelii", "test": "parasitaemia", "test system": "mouse", "setting": "4-day treatment, parasitaemia day 5", "endpoint": "ED50", "result": "1.56 mg/kg/day"}
{"SMILES": "CN[C@H](CC(C)C)C(=O)N[C@H]1C(=O)N[C@@H](CC(N)=O)C(=O)N[C@H]2C(=O)N[C@H]3C(=O)N[C@H](C(=O)N[C@H](C(=O)O)c4cc(O)cc(O)c4-c4cc3ccc4O)[C@H](O)c3ccc(c(Cl)c3)Oc3cc2cc(c3O[C@@H]2O[C@H](CO)[C@@H](O)[C@H](O)[C@H]2O[C@H]2C[C@](C)(N)[C@H](O)[C@H](C)O2)Oc2ccc(cc2Cl)[C@H]1O", "organism": "Staphylococcus aureus", "test system": "MRSA, 10 isolates", "setting": "pH 5.5", "endpoint": "MIC50", "result": "1 µg/mL"}
{"SMILES": "O=C(/C=C\\n1cnc(-c2cc(C(F)(F)F)cc(C(F)(F)F)c2)n1)NNc1ccccn1", "organism": "herpes simplex virus 1", "test": "viral replication", "test system": "K26, GFP-expressing, 3D bioprinted skin, submerged", "endpoint": "IC50", "result": "350 nM"}
{"SMILES": "CC(C)n1ncc2c(C(=O)NCC3(C)CNC3)cc(C3CC3)nc21", "organism": "Enterovirus D68", "test": "cytopathic effect", "test system": "RD, US/MO/14-18949", "setting": "5000 nM", "endpoint": "cell protection", "result": "95.1% and 99.5% and 94.5%"}
{"SMILES": "Cc1[nH]c(C)c(-c2ccc(Nc3ccc(C(F)(F)F)cn3)cc2)c(=O)c1Br", "organism": "Plasmodium yoelii", "test system": "17XL", "setting": "384-well", "endpoint": "IC50", "result": "48 ± 8 nM"}
{"SMILES": "COC1=CC(c2ccc[nH]2)=N/C1=C\\c1cc(Cc2ccc(OC(F)(F)F)cc2)c(C)[nH]1.Cl", "organism": "Plasmodium yoelii", "test": "parasitaemia", "test system": "mouse", "setting": "4-day treatment, parasitaemia day 5", "endpoint": "ED50", "result": "2.1 mg/kg/day"}
{"SMILES": "Cc1ncc([N+](=O)[O-])n1CCO", "organism": "Trichomonas gallinae", "test": "CCK-8", "test system": "trophozoites", "setting": "24 h", "endpoint": "IC50", "result": "18600 nM"}
{"SMILES": "O=c1c2c([nH]c3ccc(Oc4ccc(OC(F)(F)F)cc4)cc13)CCCC2", "organism": "Plasmodium yoelii", "test": "antimalarial activity", "test system": "CF1 mouse", "setting": "oral, once daily for 4 days", "endpoint": "ED50", "result": "6.8 mg/kg"}
{"SMILES": "COC1=CC(c2ccc[nH]2)=N/C1=C\\c1[nH]c(Cc2ccc(OC(F)(F)F)cc2)cc1Cc1ccc(OC(F)(F)F)cc1", "organism": "Plasmodium yoelii", "test system": "CF1 mice", "setting": "oral, 25 mg/kg daily for 4 days, day 5", "how to read": "baseline: vehicle", "endpoint": "parasitaemia reduction", "result": "100%"}
{"SMILES": "N=C(N)c1ccc(OCCCCCOc2ccc(C(=N)N)cc2)cc1", "organism": "Escherichia coli", "test": "checkerboard", "test system": "mcr-2 polymyxin-resistant", "setting": "concentration not given, 20 h, together with: rifampicin", "endpoint": "MIC of compound in combination", "result": "50 µg/mL"}
{"SMILES": "CN[C@H](CC(C)C)C(=O)N[C@H]1C(=O)N[C@@H](CC(N)=O)C(=O)N[C@H]2C(=O)N[C@H]3C(=O)N[C@H](C(=O)N[C@H](C(=O)O)c4cc(O)cc(O)c4-c4cc3ccc4O)[C@H](O)c3ccc(c(Cl)c3)Oc3cc2cc(c3O[C@@H]2O[C@H](CO)[C@@H](O)[C@H](O)[C@H]2O[C@H]2C[C@](C)(N)[C@H](O)[C@H](C)O2)Oc2ccc(cc2Cl)[C@H]1O", "organism": "Streptococcus salivarius", "test": "broth microdilution", "test system": "clinical isolate", "endpoint": "MIC range", "result": "0.25 µg/mL"}
{"SMILES": "O=c1c(-c2nc3ccccc3s2)cc2c(n1NS(=O)(=O)c1ccc(Cl)cc1)CCCC2", "organism": "Hepatitis C virus", "test": "viral replication, qRT-PCR", "test system": "Huh7.5 cells, genotype 4 ED-43/SG-Feo", "setting": "non-toxic concentration", "endpoint": "reduction", "result": "0%"}
{"SMILES": "CS(=O)(=O)NCCCNCc1ccc(-c2cccc(-c3nc4cc(C(F)(F)F)ccc4[nH]3)c2)cc1", "organism": "Plasmodium yoelii", "test system": "17XL", "setting": "384-well", "endpoint": "IC50", "result": "> 20000 nM"}
{"SMILES": "Cc1[nH]c(/C=C2\\N=C(c3ccc[nH]3)C=C2OC(C)C)cc1Cc1ccc(Cl)cc1.Cl", "organism": "Plasmodium yoelii", "test system": "CF1 mice", "setting": "oral, 10 mg/kg daily for 4 days, day 5", "how to read": "baseline: vehicle", "endpoint": "parasitaemia reduction", "result": "100%"}
{"SMILES": "c1cc(CN2CCN(c3ccncc3)CC2)cc(-c2ccc(-c3nc4ccccc4[nH]3)cc2)c1", "organism": "Plasmodium yoelii", "test system": "17XL", "setting": "384-well", "endpoint": "IC50", "result": "> 20000 nM"}
{"SMILES": "O=C(Nc1cccc(C2=NCCN2)c1)Nc1cccc(C2=NCCN2)c1", "organism": "Theileria equi", "test": "parasite growth, flow cytometry", "test system": "horse erythrocytes, USDA Florida strain", "setting": "0.344 µM, 72 h", "endpoint": "inhibition", "result": "9.59%"}
{"SMILES": "COc1ccc(C2CC(=O)C3=C(C2)NC(C)=C(C(=O)OC(C)C)C3c2cccc(O)c2)cc1OC (stereo not shown)", "organism": "Plasmodium yoelii", "test system": "17XL", "setting": "384-well", "endpoint": "IC50", "result": "> 20000 nM"}
{"SMILES": "Cc1ccc(N(c2ccc(NC(=O)CN(C)c3ccccc3N3CCCC3=O)cc2)C(C)C)cc1", "organism": "Plasmodium falciparum", "test system": "3D7 asexual blood stage", "setting": "10 x EC50", "endpoint": "99.9% parasite clearance time", "result": "55.2 h"}
{"SMILES": "Nc1nc2c(ncn2COCCO)c(=O)[nH]1", "organism": "herpes simplex virus 1", "test": "viral cytopathic effect", "test system": "Vero", "setting": "120 h", "endpoint": "EC50", "result": "1050 nM"}
{"SMILES": "CCOc1ccc2cc(-c3nn(CC4CCN(C)CC4)c4ncnc(N)c34)ccc2n1", "organism": "Theileria equi", "test": "hydroethidine flow cytometry", "test system": "USDA Florida", "setting": "6 µM, 72 h", "endpoint": "% of maximum PPE", "result": "48.1%"}
{"SMILES": "Nc1cc(Cl)ccc1C(=O)NCCCCNc1ccnc2cc(Cl)ccc12", "organism": "Chromobacterium violaceum", "test": "violacein production", "test system": "ATCC 31532", "setting": "400 µM, quorum sensing reporter", "endpoint": "inhibition", "result": "34.9%"}
{"SMILES": "Cc1[nH]c(/C=C2\\N=C(c3ccc[nH]3)C=C2OCc2ccccc2)cc1Cc1ccc(OC(F)(F)F)cc1", "organism": "Plasmodium yoelii", "test system": "CF1 mouse", "setting": "oral, 80 mg/kg single dose, day 5", "endpoint": "parasitaemia reduction", "result": "100%"}
{"SMILES": "COc1c(N2C[C@@H]3CCCN[C@@H]3C2)c(F)cc2c(=O)c(C(=O)O)cn(C3CC3)c12", "organism": "Streptococcus pneumoniae", "test": "broth microdilution", "test system": "penicillin-resistant isolates", "endpoint": "MIC50", "result": "0.5 µg/mL"}
{"SMILES": "O=[N+]([O-])c1ccc2[nH]c(CNCC34CC5CC(CC(C5)C3)C4)nc2c1", "organism": "Streptococcus pneumoniae", "test system": "31 clinical strains", "endpoint": "MIC90", "result": "4 µg/mL"}
{"SMILES": "C=CC[C@@H]1c2ccc(OC)c(OC)c2CN2CCc3cc4c(cc3[C@H]12)OCO4", "organism": "Staphylococcus aureus", "test system": "P2rx7+/+ mice, skin wound infection", "setting": "dose not given, day 6", "how to read": "baseline: day 0", "endpoint": "relative wound size", "result": "0.26 and 0.73 and 0.92 and 0.16 and 0.32 and 0.33"}
{"SMILES": "CCOc1ccc2cc(-c3nn(CC4CCNCC4)c4ncnc(N)c34)ccc2c1", "organism": "Theileria equi", "test": "hydroethidine flow cytometry", "test system": "USDA Florida", "setting": "0.3 µM, 72 h", "endpoint": "% of maximum PPE", "result": "101%"}
{"SMILES": "Cc1[nH]c(C)c(-c2ccc(-c3ccc(OC(F)(F)F)cc3)cc2)c(=O)c1Br", "organism": "Plasmodium yoelii", "test system": "17XL", "setting": "384-well", "endpoint": "IC50", "result": "63 ± 16 nM"}
{"SMILES": "CCOc1ccc2cc(-c3nn(CC4CCN(C)CC4)c4ncnc(N)c34)ccc2c1", "organism": "Theileria equi", "test": "parasite growth, hydroethidine flow cytometry", "test system": "USDA Florida", "setting": "72 h", "endpoint": "EC50", "result": "5720 nM"}
{"SMILES": "Nc1nc(-c2ccccc2)nc2[nH]nc(Nc3ccc(C(F)(F)F)cc3)c12", "organism": "coxsackievirus B3", "test system": "31-1-93, NMRI mice, CVB3 chronic myocarditis", "setting": "oral, 100 mg/kg twice daily, day 4, dosed days 0 to 6, score scale 0 to 7", "how to read": "direction not given", "endpoint": "clinical score", "result": 0.4}
{"SMILES": "Cc1cc(Nc2ccc(S(F)(F)(F)(F)F)cc2)n2nc(C(C)(F)F)nc2n1", "organism": "Plasmodium falciparum", "test": "microscopy", "test system": "P. falciparum malaria patients", "setting": "oral, 250 mg", "endpoint": "PC50 parasite clearance time mean", "result": "19 h"}
{"SMILES": "O=c1c(-c2nc3ccccc3s2)cc2c(n1NS(=O)(=O)c1ccccc1)CCCC2", "organism": "Hepatitis C virus", "test": "viral replication, qRT-PCR", "test system": "Huh7.5 cells, genotype 4 ED-43/SG-Feo", "setting": "non-toxic concentration", "endpoint": "reduction", "result": "30%"}
{"SMILES": "COc1ccc(-c2cc(-c3ccc(S(C)(=O)=O)cc3)cnc2N)cn1", "organism": "Plasmodium yoelii", "test system": "17XL", "setting": "384-well", "endpoint": "IC50", "result": "> 20000 nM"}
{"SMILES": "COC(=O)[C@H](Cc1ccc(O)cc1)NCc1cc2ccccc2nc1SC", "organism": "Pseudomonas aeruginosa", "setting": "2 µg/mL, without pentamidine", "how to read": "baseline: control", "endpoint": "growth", "result": "97.9%"}
{"note": "Some of these lines once more:"}
{"SMILES": "CC(C)n1ncc2c(C(=O)NCC3(C)CNC3)cc(C3CC3)nc21", "organism": "Enterovirus D68", "test": "cytopathic effect", "test system": "RD, US/MO/14-18949", "setting": "5000 nM", "endpoint": "cell protection", "result": "95.1% and 99.5% and 94.5%"}
{"SMILES": "COc1c(N2C[C@@H]3CCCN[C@@H]3C2)c(F)cc2c(=O)c(C(=O)O)cn(C3CC3)c12", "organism": "Streptococcus pneumoniae", "test": "broth microdilution", "test system": "penicillin-resistant isolates", "endpoint": "MIC50", "result": "0.5 µg/mL"}
{"SMILES": "COc1ccc(-c2cc(-c3ccc(S(C)(=O)=O)cc3)cnc2N)cn1", "organism": "Plasmodium yoelii", "test system": "17XL", "setting": "384-well", "endpoint": "IC50", "result": "> 20000 nM"}
{"SMILES": "O=c1c(-c2nc3ccccc3s2)cc2c(n1NS(=O)(=O)c1ccccc1)CCCC2", "organism": "Hepatitis C virus", "test": "viral replication, qRT-PCR", "test system": "Huh7.5 cells, genotype 4 ED-43/SG-Feo", "setting": "non-toxic concentration", "endpoint": "reduction", "result": "30%"}
{"SMILES": "CSc1ccc(OCc2ncc([N+](=O)[O-])n2C)cc1", "organism": "Trichomonas gallinae", "test": "CCK-8", "test system": "trophozoites", "setting": "24 h", "endpoint": "IC50", "result": "9480 nM"}
